# Published values collected from several papers.
# Each line is one published result; not all experiments were run side by side. Numbers after ± are the reported error.
SMILES,assay,system,conditions,endpoint,result
CCCCC1=NC2(CCCC2)C(=O)N1Cc1ccc(-c2ccccc2S(=O)(=O)Nc2noc(C)c2C)c(COCC)c1,SIVA model,aqueous buffer,,intrinsic solubility,1.9 µg/mL
O=C(NCCN1CCCC1)c1cc(-c2ccc(CN3CCOCC3)cc2)nc2ccc(F)cc12,,human liver microsomes,,intrinsic clearance,≤ 1.1 mL/min/g
O=C(c1ccc(F)cc1)C1CCN(CCn2c(=O)[nH]c3ccccc3c2=O)CC1,,mouse liver microsomes,,intrinsic clearance,239 mL/min/kg
N#Cc1cnc2ccc(F)cc2c1N1CCC(C(=O)Nc2ccc(S(N)(=O)=O)cc2)CC1,,human liver microsomes,,intrinsic clearance (scaled),31 mL/min/kg
C=CC(=O)N(C)CCOc1c(N)ncnc1-c1cc(F)cc(NC(=O)c2ccc(C3CC3)cc2F)c1C,,human liver microsomes,"pH 7.4, sum of recombinant CYP contributions","intrinsic clearance, unbound",470 µL/min/mg
O=c1ccc2ccc(O)cc2o1,,mouse liver microsomes,,intrinsic clearance,692 µL/min/mg protein
Cc1ccc(OC2CCN(c3c(C#N)cnc4ccc(F)cc34)CC2)cn1,,rat liver microsomes,,intrinsic clearance (scaled),198 mL/min/kg
CO[C@]1(C(=O)N[C@@H](C)c2ccc(-n3cc(F)cn3)nc2)CC[C@H](c2nc(C)cc(Nc3cc(C)[nH]n3)n2)CC1,,,,intrinsic solubility,0.2 µg/mL
COc1ccc2c(c1)CCN(C(=O)C1CCN(c3c(C#N)cnc4ccc(F)cc34)CC1)C2,,human liver microsomes,,intrinsic clearance (scaled),480 mL/min/kg
C[C@@H]1CN(CC(=O)N2CC(C)(C)c3ncc(Cc4ccc(F)cc4)cc32)[C@@H](CN2CCOC[C@H]2C)CN1,,"microsomes, male mouse liver, CD-1",1 µM,intrinsic clearance,89 ± 20 µL/min/mg

# A few entries again:
SMILES,assay,system,conditions,endpoint,result
COc1ccc2c(c1)CCN(C(=O)C1CCN(c3c(C#N)cnc4ccc(F)cc34)CC1)C2,,human liver microsomes,,intrinsic clearance (scaled),480 mL/min/kg
